Published values gathered from unrelated publications.
A part holds a random share of what one study measured.

Block 1 — method: universal PBM; form: double-stranded DNA, one strand shown; matrix: in vitro; concentration: 600 nM; reading: higher = stronger binding
Target: Sal-like protein 4, full length isoform A (SALL4, Homo sapiens, UniProt Q9UJQ4, residues 1-1053)
Sequence of UniProt Q9UJQ4 (whole entry, looked up): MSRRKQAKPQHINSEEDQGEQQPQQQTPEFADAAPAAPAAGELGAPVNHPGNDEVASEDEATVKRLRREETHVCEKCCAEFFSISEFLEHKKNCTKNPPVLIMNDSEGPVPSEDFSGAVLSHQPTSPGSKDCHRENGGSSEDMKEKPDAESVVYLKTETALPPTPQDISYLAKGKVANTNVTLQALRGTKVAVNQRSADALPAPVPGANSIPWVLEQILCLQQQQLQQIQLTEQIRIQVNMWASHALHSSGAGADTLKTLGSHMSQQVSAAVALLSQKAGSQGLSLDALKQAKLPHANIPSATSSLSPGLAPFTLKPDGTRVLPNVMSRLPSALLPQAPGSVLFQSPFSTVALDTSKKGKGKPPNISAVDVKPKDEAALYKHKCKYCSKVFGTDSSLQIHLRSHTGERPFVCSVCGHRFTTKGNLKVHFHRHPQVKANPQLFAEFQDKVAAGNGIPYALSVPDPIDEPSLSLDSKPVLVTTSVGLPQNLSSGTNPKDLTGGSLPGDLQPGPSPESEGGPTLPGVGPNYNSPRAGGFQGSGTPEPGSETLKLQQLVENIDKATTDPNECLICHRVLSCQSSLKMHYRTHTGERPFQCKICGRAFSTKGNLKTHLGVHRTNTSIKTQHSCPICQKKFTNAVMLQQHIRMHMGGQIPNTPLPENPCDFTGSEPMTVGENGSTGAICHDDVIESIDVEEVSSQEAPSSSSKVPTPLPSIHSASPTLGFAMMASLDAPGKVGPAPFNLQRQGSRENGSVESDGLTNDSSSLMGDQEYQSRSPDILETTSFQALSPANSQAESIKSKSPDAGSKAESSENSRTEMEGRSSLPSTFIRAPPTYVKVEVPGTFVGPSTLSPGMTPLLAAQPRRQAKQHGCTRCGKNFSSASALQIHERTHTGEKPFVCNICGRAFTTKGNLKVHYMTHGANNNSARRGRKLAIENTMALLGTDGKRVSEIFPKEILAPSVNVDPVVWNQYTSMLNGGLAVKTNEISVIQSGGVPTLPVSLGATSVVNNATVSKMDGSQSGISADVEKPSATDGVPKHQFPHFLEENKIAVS
Notes: 8-mer, flanks averaged, mean of replicates
| Sequence | E-score |
| --- | --- |
| CTTCGGCA | -0.243 |
| GACTGGTA | -0.11 |
| AGCAGAAG | -0.0671 |
| CGCTTCGC | -0.224 |

Block 2 — method: protein binding microarray; form: double-stranded DNA, one strand shown; matrix: in vitro; concentration: not given; baseline: not given; reading: higher = stronger binding
Target: Histone acetyltransferase KAT6A, winged helix 1, GST fusion (KAT6A, Homo sapiens, UniProt Q92794, residues 1-85)
Notes: 8-mer, flanks averaged, mean of 2 arrays, mostly near background
Target sequence (chain): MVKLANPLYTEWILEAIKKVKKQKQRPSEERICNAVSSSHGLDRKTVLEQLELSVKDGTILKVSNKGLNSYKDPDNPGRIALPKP
| Sequence | E-score |
| --- | --- |
| ATATTCAG | 0.0282 |
| AAAGCTTT | 0.206 |
| AATAACGC | 0.0878 |

Block 3 — method: RNA Bind-n-Seq; form: RNA; matrix: in vitro; concentration: 1 µM; notes: whole 134-nt RNA, ends assumed; together with: 150 mM KCl; baseline: input library; reading: higher = stronger binding
Target: Ras GTPase-activating protein-binding protein 1, RRM domain (G3BP1, Homo sapiens, UniProt Q13283)
Sequence of UniProt Q13283 (whole entry, looked up): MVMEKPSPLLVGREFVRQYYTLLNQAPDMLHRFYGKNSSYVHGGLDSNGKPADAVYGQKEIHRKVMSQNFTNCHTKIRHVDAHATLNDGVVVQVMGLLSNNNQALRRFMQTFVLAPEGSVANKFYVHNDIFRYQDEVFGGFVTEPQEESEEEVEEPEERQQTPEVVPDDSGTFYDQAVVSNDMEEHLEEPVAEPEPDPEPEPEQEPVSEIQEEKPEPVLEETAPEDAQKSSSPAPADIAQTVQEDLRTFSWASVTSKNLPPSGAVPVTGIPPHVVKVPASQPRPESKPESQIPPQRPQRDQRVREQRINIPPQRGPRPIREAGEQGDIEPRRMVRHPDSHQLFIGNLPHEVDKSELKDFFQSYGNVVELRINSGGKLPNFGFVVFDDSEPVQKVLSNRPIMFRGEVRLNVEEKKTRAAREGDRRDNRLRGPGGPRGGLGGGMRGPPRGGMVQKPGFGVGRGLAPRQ
| Sequence | log2 enrichment |
| --- | --- |
| GGGAGUUCUACAGUCCGACGAUCCUGUGCUACACAUCGUAUGUACCGAAUCGGGAAAAAAAGGAAAAAAAGGGGAAAAAAAGGGGAAAGUAUUAUGUUACGCCGUUCGGAUCUUGGAAUUCUCGGGUGUCAAGG | 0.147 |
| GGGAGUUCUACAGUCCGACGAUCUAACUUUAGAGGAGGAUCUGAUGGAUAUGGCAGUGGCCGUGGAUUUGGGGAUGGCUAUAAUGGGUAUGGAGGAGGACCUGGAGGUGGCAAUGGAAUUCUCGGGUGUCAAGG | -0.714 |
| GGGAGUUCUACAGUCCGACGAUCUCCUGUGCUACACAUCGUAUGUACCGAAUCGGUUUUUUUGGUUUUUUUGGUUUUUUUGGGAAAGUAUUAUGUUACGCCGUUCGGAUCUGCUGGAAUUCUCGGGUGUCAAGG | -0.144 |

Other studies, line by line
| Substance | target | test | system | conditions | how to read | endpoint | value |
| --- | --- | --- | --- | --- | --- | --- | --- |
| PhoQ, residues 284 288 289 292 302 303 TGYLSA | PhoP, residues 12 14 15 18 19 GQAIL (Escherichia coli, UniProt P23836) | Sort-seq, measured: YFP reporter | E. coli | PhoQ-PhoP variant library, together with: 10 µM Mg2+ | baseline: high Mg2+ state, higher = stronger signaling | fold induction | 4.72 |

Excerpt of the above (block 1):
| Sequence | E-score |
| --- | --- |
| AGCAGAAG | -0.0671 |
